Measured values from different studies.
Protocols differ between the studies behind these lines. Numbers after ± are the reported error.
ALOX5: Polyunsaturated fatty acid 5-lipoxygenase (ALOX5, Homo sapiens, UniProt P09917)
UniProt P09917, sequence (whole entry, looked up): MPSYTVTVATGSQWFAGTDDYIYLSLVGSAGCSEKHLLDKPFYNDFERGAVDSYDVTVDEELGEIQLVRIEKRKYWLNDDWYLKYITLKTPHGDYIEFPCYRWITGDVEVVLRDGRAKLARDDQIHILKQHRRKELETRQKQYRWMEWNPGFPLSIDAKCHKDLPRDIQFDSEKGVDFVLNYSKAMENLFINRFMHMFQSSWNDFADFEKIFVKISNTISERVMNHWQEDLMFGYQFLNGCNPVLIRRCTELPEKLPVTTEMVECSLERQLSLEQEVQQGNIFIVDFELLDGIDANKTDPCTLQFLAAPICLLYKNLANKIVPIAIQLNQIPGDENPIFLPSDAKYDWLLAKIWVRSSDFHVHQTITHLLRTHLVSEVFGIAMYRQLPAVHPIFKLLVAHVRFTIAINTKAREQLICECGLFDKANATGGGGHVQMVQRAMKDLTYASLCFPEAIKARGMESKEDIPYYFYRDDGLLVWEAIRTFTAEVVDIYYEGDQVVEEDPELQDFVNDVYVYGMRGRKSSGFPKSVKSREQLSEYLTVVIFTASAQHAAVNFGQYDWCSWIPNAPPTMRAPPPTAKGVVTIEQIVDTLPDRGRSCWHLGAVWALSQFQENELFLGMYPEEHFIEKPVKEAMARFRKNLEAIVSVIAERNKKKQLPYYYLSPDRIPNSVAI
FGR: Tyrosine-protein kinase Fgr (FGR, Homo sapiens, UniProt P09769)
UniProt P09769, sequence (whole entry, looked up): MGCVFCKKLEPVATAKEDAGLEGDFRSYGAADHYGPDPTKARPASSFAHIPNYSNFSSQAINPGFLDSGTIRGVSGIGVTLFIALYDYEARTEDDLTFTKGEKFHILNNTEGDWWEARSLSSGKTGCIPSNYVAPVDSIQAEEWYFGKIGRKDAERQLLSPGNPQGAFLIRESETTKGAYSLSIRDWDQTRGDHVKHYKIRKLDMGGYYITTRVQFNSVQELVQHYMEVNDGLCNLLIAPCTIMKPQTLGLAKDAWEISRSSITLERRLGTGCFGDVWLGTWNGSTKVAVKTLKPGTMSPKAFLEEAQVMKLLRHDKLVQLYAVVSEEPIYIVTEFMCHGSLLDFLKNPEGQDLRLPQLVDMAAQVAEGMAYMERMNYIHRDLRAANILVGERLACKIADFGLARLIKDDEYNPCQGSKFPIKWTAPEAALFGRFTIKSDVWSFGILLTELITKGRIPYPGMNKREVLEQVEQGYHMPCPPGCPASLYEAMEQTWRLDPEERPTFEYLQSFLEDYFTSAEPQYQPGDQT
ADORA1: Adenosine receptor A1 (ADORA1, Homo sapiens, UniProt P30542)
UniProt P30542, sequence (whole entry, looked up): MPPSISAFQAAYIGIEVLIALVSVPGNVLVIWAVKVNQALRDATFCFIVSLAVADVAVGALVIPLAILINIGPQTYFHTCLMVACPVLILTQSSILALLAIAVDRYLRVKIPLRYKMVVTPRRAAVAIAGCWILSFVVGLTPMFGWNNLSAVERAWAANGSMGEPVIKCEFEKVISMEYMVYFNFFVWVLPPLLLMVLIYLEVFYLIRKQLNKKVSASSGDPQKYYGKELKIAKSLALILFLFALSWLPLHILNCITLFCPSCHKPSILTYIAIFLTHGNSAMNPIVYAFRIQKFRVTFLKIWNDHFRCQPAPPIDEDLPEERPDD
ELANE: Neutrophil elastase (ELANE, Homo sapiens, UniProt P08246)
UniProt P08246, sequence (whole entry, looked up): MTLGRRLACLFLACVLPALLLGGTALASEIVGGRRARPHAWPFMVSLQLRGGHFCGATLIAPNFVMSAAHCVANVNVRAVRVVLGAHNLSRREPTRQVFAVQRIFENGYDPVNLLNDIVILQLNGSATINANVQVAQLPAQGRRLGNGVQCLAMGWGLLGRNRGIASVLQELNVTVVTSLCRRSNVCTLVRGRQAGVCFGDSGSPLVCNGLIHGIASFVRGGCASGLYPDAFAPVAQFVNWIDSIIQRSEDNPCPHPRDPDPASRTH
RIPK2: Receptor-interacting serine/threonine-protein kinase 2 (RIPK2, Homo sapiens, UniProt O43353)
UniProt Q00987, sequence (whole entry, looked up): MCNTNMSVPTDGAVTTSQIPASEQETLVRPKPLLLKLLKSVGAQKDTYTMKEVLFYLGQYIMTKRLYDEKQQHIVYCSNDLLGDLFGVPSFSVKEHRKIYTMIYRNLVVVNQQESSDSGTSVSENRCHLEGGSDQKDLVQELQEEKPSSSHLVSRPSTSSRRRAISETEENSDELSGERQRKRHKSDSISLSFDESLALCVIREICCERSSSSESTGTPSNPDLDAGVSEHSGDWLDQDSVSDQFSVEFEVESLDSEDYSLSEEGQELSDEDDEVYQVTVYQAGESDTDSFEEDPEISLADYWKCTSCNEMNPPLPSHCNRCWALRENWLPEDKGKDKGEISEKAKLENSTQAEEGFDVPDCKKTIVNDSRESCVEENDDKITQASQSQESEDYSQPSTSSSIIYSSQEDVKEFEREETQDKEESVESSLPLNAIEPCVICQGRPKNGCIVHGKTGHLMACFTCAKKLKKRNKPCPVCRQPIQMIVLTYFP
UniProt O43353, sequence (whole entry, looked up): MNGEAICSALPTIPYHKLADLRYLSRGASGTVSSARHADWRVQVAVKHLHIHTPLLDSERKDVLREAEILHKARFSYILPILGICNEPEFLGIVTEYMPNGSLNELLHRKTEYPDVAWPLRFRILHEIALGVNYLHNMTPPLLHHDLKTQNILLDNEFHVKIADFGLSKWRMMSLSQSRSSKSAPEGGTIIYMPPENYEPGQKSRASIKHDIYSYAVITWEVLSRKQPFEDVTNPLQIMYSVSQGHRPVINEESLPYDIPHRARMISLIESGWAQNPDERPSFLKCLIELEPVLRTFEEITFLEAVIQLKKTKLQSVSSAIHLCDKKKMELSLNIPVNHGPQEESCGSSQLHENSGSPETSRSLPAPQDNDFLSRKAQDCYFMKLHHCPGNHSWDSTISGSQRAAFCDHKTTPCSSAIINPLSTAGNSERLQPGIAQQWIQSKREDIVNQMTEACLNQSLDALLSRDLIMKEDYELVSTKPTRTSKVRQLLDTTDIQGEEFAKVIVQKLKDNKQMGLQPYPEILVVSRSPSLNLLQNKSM
UniProt Q8WUI4, sequence (whole entry, looked up): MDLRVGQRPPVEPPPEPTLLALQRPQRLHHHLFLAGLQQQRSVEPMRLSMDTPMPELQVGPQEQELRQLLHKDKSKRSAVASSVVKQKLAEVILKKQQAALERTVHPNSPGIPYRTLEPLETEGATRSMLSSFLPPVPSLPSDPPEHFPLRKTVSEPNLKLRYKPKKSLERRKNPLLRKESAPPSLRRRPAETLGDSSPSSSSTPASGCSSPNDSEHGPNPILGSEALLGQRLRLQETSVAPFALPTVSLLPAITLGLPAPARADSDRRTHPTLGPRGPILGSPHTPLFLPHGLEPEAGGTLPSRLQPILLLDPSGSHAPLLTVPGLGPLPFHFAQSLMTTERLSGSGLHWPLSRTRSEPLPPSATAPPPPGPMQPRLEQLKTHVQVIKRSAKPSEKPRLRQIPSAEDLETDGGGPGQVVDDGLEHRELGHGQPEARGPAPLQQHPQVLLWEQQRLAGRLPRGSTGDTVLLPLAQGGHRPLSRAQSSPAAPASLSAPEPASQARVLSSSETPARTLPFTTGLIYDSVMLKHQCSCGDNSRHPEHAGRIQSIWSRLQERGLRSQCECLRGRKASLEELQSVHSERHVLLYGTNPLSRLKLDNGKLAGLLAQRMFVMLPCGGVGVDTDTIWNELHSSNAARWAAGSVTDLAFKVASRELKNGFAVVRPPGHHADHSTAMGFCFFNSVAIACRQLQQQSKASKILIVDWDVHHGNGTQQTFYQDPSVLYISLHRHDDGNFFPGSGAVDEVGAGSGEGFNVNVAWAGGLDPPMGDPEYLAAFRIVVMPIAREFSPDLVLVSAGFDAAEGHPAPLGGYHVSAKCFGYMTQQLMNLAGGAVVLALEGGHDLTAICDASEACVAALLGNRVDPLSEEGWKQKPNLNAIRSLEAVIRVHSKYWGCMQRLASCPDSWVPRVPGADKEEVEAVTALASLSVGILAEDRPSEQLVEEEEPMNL
UniProt P00921, sequence (whole entry, looked up): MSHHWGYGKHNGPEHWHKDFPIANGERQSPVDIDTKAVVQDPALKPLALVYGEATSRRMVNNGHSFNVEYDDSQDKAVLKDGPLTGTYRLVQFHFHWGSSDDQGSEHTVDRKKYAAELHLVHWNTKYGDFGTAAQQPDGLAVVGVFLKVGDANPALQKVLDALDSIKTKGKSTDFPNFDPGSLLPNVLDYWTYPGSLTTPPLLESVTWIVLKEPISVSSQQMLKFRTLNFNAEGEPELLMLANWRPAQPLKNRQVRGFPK
UniProt P08842, sequence (whole entry, looked up): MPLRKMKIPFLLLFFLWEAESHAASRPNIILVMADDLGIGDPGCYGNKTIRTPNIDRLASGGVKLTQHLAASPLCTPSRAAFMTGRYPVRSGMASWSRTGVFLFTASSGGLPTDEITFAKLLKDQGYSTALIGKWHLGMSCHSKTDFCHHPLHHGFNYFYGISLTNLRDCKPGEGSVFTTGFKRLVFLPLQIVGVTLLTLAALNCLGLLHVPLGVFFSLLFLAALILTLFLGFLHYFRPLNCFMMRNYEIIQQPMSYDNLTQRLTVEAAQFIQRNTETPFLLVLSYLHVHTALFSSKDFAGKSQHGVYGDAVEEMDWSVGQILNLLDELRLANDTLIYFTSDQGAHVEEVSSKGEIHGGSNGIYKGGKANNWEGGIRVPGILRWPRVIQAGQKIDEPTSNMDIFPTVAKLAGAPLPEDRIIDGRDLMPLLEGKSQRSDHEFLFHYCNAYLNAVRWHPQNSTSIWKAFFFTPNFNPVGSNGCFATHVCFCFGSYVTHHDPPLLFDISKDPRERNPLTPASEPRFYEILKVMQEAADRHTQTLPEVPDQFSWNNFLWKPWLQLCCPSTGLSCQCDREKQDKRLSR
UniProt Q02768, sequence (whole entry, looked up): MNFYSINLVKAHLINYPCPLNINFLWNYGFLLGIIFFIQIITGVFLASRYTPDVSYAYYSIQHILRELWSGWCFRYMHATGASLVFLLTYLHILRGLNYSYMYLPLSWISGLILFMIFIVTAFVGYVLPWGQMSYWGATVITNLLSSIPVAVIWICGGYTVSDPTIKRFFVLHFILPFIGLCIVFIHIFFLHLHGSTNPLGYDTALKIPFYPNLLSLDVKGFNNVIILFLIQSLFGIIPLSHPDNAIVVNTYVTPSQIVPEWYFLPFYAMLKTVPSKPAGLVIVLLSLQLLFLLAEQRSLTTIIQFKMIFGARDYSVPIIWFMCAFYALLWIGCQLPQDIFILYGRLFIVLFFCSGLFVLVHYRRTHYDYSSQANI

Structure (SMILES)	target	assay	test system	conditions	IC50 [µM]
CC(=O)C1=C(C)NC(=O)NC1c1ccc(F)cc1F (stereo not shown)	Pancreatic alpha-amylase (AMY2, Sus scrofa, UniProt P00690)	enzyme activity, inhibitor			282
O=c1c2ccccc2on1-c1ccccc1	Histone deacetylase 7 (HDAC7, Homo sapiens, UniProt Q8WUI4)	enzyme activity, inhibitor			> 10
Oc1ccc(/C=C/c2nc(CCc3ccccc3)no2)cc1O	ALOX5	enzyme activity in cells, inhibitor, HPLC			0.93
O=C(/C=C/c1ccc(O)cc1)/C=C/c1ccc(O)cc1	Pancreatic triacylglycerol lipase (PNLIP, Sus scrofa, UniProt P00591)	enzyme activity, inhibitor, absorbance			265
O=C(Nc1ccc(-c2nc(-c3ccccc3)cs2)cc1)C1CCN(Cc2ccccc2Cl)CC1	Bifunctional epoxide hydrolase 2 (Ephx2, Mus musculus, UniProt P34914)	enzyme activity, inhibitor, fluorescence		pH 7.4, with preincubation	1.68
O=C(Nc1ccccc1)N[C@H]1C[C@@H](C(=O)O)Nc2cc(Cl)cc(Cl)c21 (stereo in doubt)	Glutamate NMDA receptor; Grin1/Grin2a (Grin1/Grin2a, Rattus norvegicus, UniProt P35439+Q00959)	ion current, two-electrode voltage clamp		oocytes	0.25
C#CC(=O)Nc1ccc2nc(NCCCCCN(C)C)nc(NCCCCCCN(C)C)c2c1	Histone-lysine N-methyltransferase SETDB1, triple tudor domain (SETDB1, Homo sapiens, UniProt Q15047, C385A)	binding, TR-FRET displacement		1 h, room temperature	31 ± 11.8
C=CC(=O)N1CCc2ccc(-n3c(=O)ccc4cnc5ccc(-c6cnn(C)c6)cc5c43)cc21	FGR	enzyme activity, inhibitor			6.18
CC(C)C[C@@H](N)C(=O)N[C@H](CC(=O)O)C(=O)N[C@@H](C(=O)N[C@H](Cc1ccccc1)C(=O)N[C@H](CC(C)C)C(=O)N[C@H](Cc1ccc(O)cc1)C(=O)N[C@H](CO)C(=O)N[C@H](CCC(=O)O)C(=O)O)C(C)C	Programmed cell death 1 ligand 1, with PD-1 (CD274, Homo sapiens, UniProt Q9NZQ7)	PD-1/PD-L1 binding, inhibitor, flow cytometry	CHO-K1 expressing human PD-1	added: human PD-L1-Fc	30.25 ± 0.24
CCOC(=O)C1=C(C)NC2=C(C(=O)CC(C)(C)C2)C1c1ccc(OCC(=O)NN=Cc2cc(Br)c(O)c(Br)c2)cc1OCC(=O)NN=Cc1cc(Br)c(O)c(Br)c1 (stereo not shown)	Alpha-glucosidase MAL32 (MAL32, Saccharomyces cerevisiae, UniProt P38158)	inhibitor		pH 6.8, 37 °C, added: p-nitrophenyl α-D-glucopyranoside 0.7 mM	8.89 ± 0.37
O=C(O)c1ccc(O)c(O)c1	Tyrosine-protein phosphatase non-receptor type 1 (PTPN1, Homo sapiens, UniProt P18031)	enzyme activity, inhibitor, absorbance			> 100
CCNC(=O)[C@H]1O[C@@H](n2cnc3c(NCCCCNC(=O)CCCCCNC(=O)CCC4=[N+]5C(=Cc6c(C)cc(C)n6[B-]5(F)F)C=C4)ncnc32)[C@H](O)[C@@H]1O	ADORA1	CRE reporter gene, agonist	CHO-A1	Gi-mediated inhibition, added: forskolin	0.269
COc1ccc2c(c1)c1c(n2CO)CN2CCc3cc(OCc4cccc(F)c4)c(OC)cc3C2C1 (stereo not shown)	5-hydroxytryptamine receptor 1B (HTR1B, Homo sapiens, UniProt P28222)	ligand displacement in cells, radioligand			15.7
CC(=O)[C@@]12C[C@@H](CC=C(C)C)[C@](C)(CCC=C(C)C)C(C(=O)c3ccccc3)=C1O[C@]1(C)CCCC(C)(C)[C@H]1C2 (relative stereo)	α-glucosidase Saccharomyces cerevisiae			added: p-nitrophenyl glucoside	> 100
CC(=O)N[C@@H](CC(C)C)C(=O)N[C@H](C(=O)N[C@@H](Cc1ccccc1)C(=O)N[C@H]1CSCc2ccc(cn2)-c2ccc(nc2)CSC[C@@H](C(=O)N[C@@H](CO)C(=O)NCCCNCCCCNCCCN)NC(=O)[C@H](CC(C)C)NC(=O)[C@H](CCC(N)=O)NC(=O)[C@H](C)NC(=O)[C@H](Cc2c[nH]c3ccccc23)NC(=O)[C@H](Cc2ccc(O)cc2)NC(=O)[C@H](Cc2c[nH]cn2)NC1=O)[C@@H](C)O	E3 ubiquitin-protein ligase Mdm2, with p53 (MDM2, Homo sapiens, UniProt Q00987)	binding, inhibitor, ELISA			0.046 ± 0.006
Cc1ccc(C(=O)Nc2ccc(CP(=O)(O)O)cc2CP(=O)(O)O)cc1NC(=O)c1cccc(NC(=O)Nc2cccc(C(=O)Nc3cc(C(=O)Nc4ccc(CP(=O)(O)O)cc4CP(=O)(O)O)ccc3C)c2)c1	ELANE	enzyme activity, inhibitor, absorbance		pH 7.4	16.6
CCCCc1ccc(-c2ccc(C(=O)Nc3cccc(S(=O)(=O)O)c3)cc2)cc1	ELANE	enzyme activity, inhibitor, fluorescence			35.2
C=CC(=O)NCCC[C@H](NC(=O)[C@@H]1CCCN1C(=O)[C@H](CCCNC(=N)N)NC(=O)[C@@H](NC(=O)[C@H](CCSC)NC(=O)[C@H](C)NC(=O)[C@@H](NC(=O)[C@@H]1CCCN1C(=O)[C@H](CCCNC(=N)N)NC(=O)[C@H](CC(C)C)NC(=O)[C@H](CCCCN)NC(C)=O)C(C)C)C(C)C)C(=O)N[C@H](C(=O)N[C@@H](CCCNC(=N)N)C(N)=O)C(C)C	E3 ubiquitin-protein ligase SIAH1, part residues 81-282 (SIAH1, Homo sapiens, UniProt Q8IUQ4)	binding, inhibitor, DELFIA		1 h, 0 °C, Siah1 residues 81-282, added: biotin-PHYL peptide displacement	0.05
Cn1nc(-c2cccc(O)c2)c2c(N)ncnc21	Protein-tyrosine kinase 6 (PTK6, Homo sapiens, UniProt Q13882)	enzyme activity, inhibitor, ADP detection			0.0111
C[C@@]12CC[C@@H]3c4cc(Br)c(O)cc4CC[C@H]3[C@@H]1CCC2=O	Aldo-keto reductase family 1 member C2 (AKR1C2, Homo sapiens, UniProt P52895)	enzyme activity, inhibitor, absorbance		pH 9	1.5
N[C@@](CF)(Cc1ccc(O)cc1)C(=O)O	L-tyrosine decarboxylase (tyrDC, Enterococcus faecalis, UniProt P0DTQ4)	L-dopa decarboxylation, inhibitor			4700
CCNC(=O)[C@H]1O[C@@H](n2cnc3c(NCCCCNC(=O)CCN(C)c4ccc5nc6ccc(N(CC)CCCS(=O)(=O)[O-])cc6[o+]c5c4)ncnc32)[C@H](O)[C@@H]1O	ADORA1	ligand displacement in cells, radioligand			> 10
C=CC(=O)Nc1cccc(Cn2ncc3cnc(Nc4cnn(CCOC)c4)nc32)c1	Tyrosine-protein kinase TXK (TXK, Homo sapiens, UniProt P42681)	enzyme activity, inhibitor, FRET			0.00291

Structure (SMILES)	target	assay	test system	conditions	IC50 [µM]
COCc1cc2c(cn1)CN(C(=O)Nc1nc(-c3ccc(F)cc3)ccc1N)C2	Histone deacetylase 4 (HDAC4, Homo sapiens, UniProt P56524)	deacetylase activity, inhibitor, recombinant enzyme			> 30
O=[N+]([O-])c1cccc(-n2c(-c3ccc(Cl)cc3)cs/c2=N/N=C/c2ccc(N3CCOCC3)cc2)c1	Carbonic anhydrase 2 (CA2, Bos taurus, UniProt P00921)	enzyme activity, inhibitor, absorbance			59.3
COc1ccc(SCC(=O)c2ccc(O)cc2O)cc1	Estrogen receptor (ESR1, Homo sapiens, UniProt P03372)	coactivator recruitment, antagonist			1.96
COc1cc(C(=O)NCCCNC(=O)c2ccc(F)nc2)ccc1NC(=O)C1NC(CC(C)(C)C)C(C#N)(c2ccc(Cl)cc2F)C1c1cccc(Cl)c1F (stereo not shown)	E3 ubiquitin-protein ligase Mdm2 (MDM2, Homo sapiens, UniProt Q00987)	ligand displacement, FP			0.16
CN(C)CCCCCCNc1nc(NCCCCCN(C)C)nc2ccc(NC(=O)CCl)cc12	Histone-lysine N-methyltransferase SETDB1, triple Tudor domain (SETDB1, Homo sapiens, UniProt Q15047)	binding, inhibitor			0.69 ± 0.2
O=C(/C=C/c1ccccc1)Oc1ccc2c(c1)O/C(=C\C=C\c1ccccc1)C2=O	Phosphatidylinositol 4,5-bisphosphate 3-kinase catalytic subunit delta isoform, with p85 alpha (PIK3CD, Homo sapiens, UniProt O00329)	enzyme activity, inhibitor, ELISA			> 1
CCOC(=O)C(CC)NC(=O)CN1C(=O)S/C(=C\c2ccc(OC)cc2)C1=O (stereo not shown)	α-amylase	enzyme activity, DNSA colorimetric			> 100
N#Cc1ccc(C2Sc3ccccc3NC3=C2C(=O)c2ccccc23)cc1 (racemic)	MT-CYB, bc1 complex (Plasmodium falciparum, UniProt Q02768)	enzyme activity, inhibitor	purified mitochondrial fractions		0.049 ± 0.0068
Cc1cc(CN(C)C(=O)c2cccc(-c3ccc(F)cc3)c2)no1	Acetyl-CoA synthetase (Cryptococcus neoformans, UniProt J9VFT1)				> 50
CC(C)C(=O)N1CCC=C(c2cc3c(Nc4cc5ncsc5cc4F)ncnc3s2)C1	RIPK2	enzyme activity, inhibitor			0.009
Cc1cc(/C=C2\SC(=S)NC2=O)cc(C)c1O	Phosphatidylinositol 4,5-bisphosphate 3-kinase catalytic subunit alpha isoform (PIK3CA, Homo sapiens, UniProt P42336)	enzyme activity, inhibitor, radiometric			0.069
CNC(=O)C1CCN(c2cc(C)c(F)cc2NC(=O)c2ccc(-c3cc(O)ccc3C)c(C)c2)CC1	FGR	target engagement in cells, BRET			6.51
CSc1ccc2c(c1)C(N1CCN(C)CC1)Cc1ccccc1S2 (stereo not shown)	5-hydroxytryptamine receptor 2A (Drosophila melanogaster, UniProt Q9VN38)	calcium response, antagonist, calcium imaging	HEK293T	added: 5-HT near EC50	44
COc1cc(O)ccc1CC[C@@H](c1ccc(O)cc1)c1cc2c(c(C)c1O)O[C@@H](c1ccc(O)cc1)CC2	ALOX5	5-LO product formation	human PMNL	added: A23187	1.7
Cc1cc(NC(=O)c2cccc(-n3cc(NC(=O)Nc4ccccc4Cl)cn3)c2)ccn1	Mitogen-activated protein kinase 10, isoform alpha-1 (MAPK10, Homo sapiens, UniProt P53779, L144I)	enzyme activity, inhibitor, HTRF		added: 1.25 µM ATP	> 10
Cc1cc(OCC(=O)N2CCN(c3ccc(F)cc3)CC2)c2c(C)c(C)c(=O)oc2c1	DNA gyrase subunit B (gyrB, Escherichia coli, UniProt P0AES6)	enzyme activity, inhibitor			16.2 ± 0.4
CCOc1cncc(-c2ccc(NC(=O)C(CC)c3ccnc(NS(=O)(=O)C4CC4)n3)nc2)n1 (stereo not shown)	CTP synthase 1 (Homo sapiens, UniProt P17812)	enzyme activity, inhibitor, mass spectrometry			0.0148
CC[C@H](C)[C@@H]1NC(=O)[C@H](Cc2c[nH]c3ccccc23)NC(=O)CNC(=O)c2cc3cc(c2)C(=O)NC[C@@H](C(=O)NCCC(=O)NCCC(=O)N[C@@H](CCCCN)C(N)=O)NC(=O)[C@H](CCCNC(=N)N)NC(=O)[C@@H](CCCNC(=N)N)NC(=O)[C@H](CCCNC(=N)N)NC(=O)[C@H](Cc2ccc4ccccc4c2)NC(=O)[C@H](Cc2ccccc2)NC(=O)[C@H](CNC3=O)NC(=O)[C@H](C)NC(=O)[C@H](C)NC1=O	NF-kappa-B essential modulator, with IKK-beta (IKBKG, Homo sapiens, UniProt Q9Y6K9)	inhibitor, HTRF			2.8 ± 0.3
N#Cc1ccc(N(Cc2c(F)cc(OS(N)(=O)=O)cc2F)n2cnnc2)cc1	Steryl-sulfatase (STS, Homo sapiens, UniProt P08842)	enzyme activity, inhibitor	JEG-3 intact monolayers		0.01 to 0.1
O=c1cc(-c2ccc(O)cc2)oc2cc(O)ccc12	ALOX5	enzyme activity, inhibitor, HPLC			5
CCC(=O)N1CCC=C(c2cc3c(Nc4cc5ncsc5cc4F)ncnc3s2)C1	RIPK2	enzyme activity, inhibitor			0.011
COc1cc(C2c3cc4c(cc3C(C(C)C)C3COC(=O)C23)OCO4)cc(OC)c1OC (stereo not shown)	tubulin alpha/beta (Leishmania infantum, UniProt A0A381MCS3+A4HTR0)	tubulin polymerization, inhibitor		37 °C	3.5 ± 0.8
O=C(O[C@@H]1Cc2c(O)cc(O)cc2O[C@@H]1c1cc(O)c(O)c(O)c1)c1cc(O)c(O)c(O)c1	Genome polyprotein, protease (Hepatitis C virus genotype 1a, UniProt P27958)	enzyme activity, inhibitor, fluorescence			> 200

Excerpt of the above:
Structure (SMILES)	target	assay	test system	conditions	IC50 [µM]
Cn1nc(-c2cccc(O)c2)c2c(N)ncnc21	Protein-tyrosine kinase 6 (PTK6, Homo sapiens, UniProt Q13882)	enzyme activity, inhibitor, ADP detection			0.0111
C[C@@]12CC[C@@H]3c4cc(Br)c(O)cc4CC[C@H]3[C@@H]1CCC2=O	Aldo-keto reductase family 1 member C2 (AKR1C2, Homo sapiens, UniProt P52895)	enzyme activity, inhibitor, absorbance		pH 9	1.5
N[C@@](CF)(Cc1ccc(O)cc1)C(=O)O	L-tyrosine decarboxylase (tyrDC, Enterococcus faecalis, UniProt P0DTQ4)	L-dopa decarboxylation, inhibitor			4700
CCNC(=O)[C@H]1O[C@@H](n2cnc3c(NCCCCNC(=O)CCN(C)c4ccc5nc6ccc(N(CC)CCCS(=O)(=O)[O-])cc6[o+]c5c4)ncnc32)[C@H](O)[C@@H]1O	ADORA1	ligand displacement in cells, radioligand			> 10
C=CC(=O)Nc1cccc(Cn2ncc3cnc(Nc4cnn(CCOC)c4)nc32)c1	Tyrosine-protein kinase TXK (TXK, Homo sapiens, UniProt P42681)	enzyme activity, inhibitor, FRET			0.00291
COCc1cc2c(cn1)CN(C(=O)Nc1nc(-c3ccc(F)cc3)ccc1N)C2	Histone deacetylase 4 (HDAC4, Homo sapiens, UniProt P56524)	deacetylase activity, inhibitor, recombinant enzyme			> 30
